Published values gathered from unrelated publications.
A part holds a random share of what one study measured. Substitutions count along the parent as printed.

Sample 1
Target: CDC34 UBC core domain (UniProt P49427)
Method: yeast two-hybrid
Matrix: yeast
Notes: mostly zero background
Baseline: not given
Reading: higher = stronger interaction
B1: TRIM28 RING domain (UniProt Q13263); chain GAEALELLEHCGVCRERLRPEREPRLLPCLHSACSACLGPAAPAAANSSGDGGAAGDGTVVDCPVCKQQCFSKDIVE
B2: TRIM74 RING domain (UniProt Q86UV6); chain SLLELEDWLQCPICLEVFKESLMLQCGHSYCKGCLVSLSYHLDTKVRCPMCWQVVDGSSSLP
B3: RNF10 RING domain (UniProt Q8N5U6); chain VRICSHEVPSCPICLYPPTAAKITRCGHIFCWACILHYLSLSEKTWSKCPICYSSVHKKDLKS
B4: TRIM34 RING domain (UniProt Q9BYJ4); chain ILLNVQEEVTCPICLELLTEPLSLDCGHSLCRACITVSNKEAVTSMGGKSSCPVCGISYSFEHLQA
B5: RNF32 RING domain (UniProt Q9H0A6); chain VQALRRETHECSICLAPLSAAGGQRVGAGRRSREMALLSCSHVFHHACLLALEEFSVGDRPPFHACPLCRSCYQKKILEC
B6: MARCHF2 RING domain (UniProt Q9P0N8); chain RLLSTVIRALDTPSDGPFCRICHEGANGECLLSPCGCTGTLGAVHKSCLEKWLSSSNTSYCELCHTEFAVEKRPRPLTEWL
B7: TRIM32 RING domain (UniProt Q13049); chain NLDALREVLECPICMESFTEEQLRPKLLHCGHTICRQCLEKLLASSINGVRCPFCSKITRITSLTQ
B8: RNF7 RING domain (UniProt Q9UBF6); chain AICRVQVMDACLRCQAENKQEDCVVVWGECNHSFHNCCMSLWVKQNNRCPLCQQDWVVQRIGK
B9: TRIM47 RING domain (UniProt Q96LD4); chain MDGSGPFSCPICLEPLREPVTLPCGHNFCLACLGALWPHRGASGAGGPGGAARCPLCQEPFPDGLQLR
B10: TRIM2 RING domain (UniProt Q9C040); chain VRQIDKQFLICSICLERYKNPKVLPCLHTFCERCLQNYIPAHSLTLSCPVCRQTSILPEKGV
Construct (chain): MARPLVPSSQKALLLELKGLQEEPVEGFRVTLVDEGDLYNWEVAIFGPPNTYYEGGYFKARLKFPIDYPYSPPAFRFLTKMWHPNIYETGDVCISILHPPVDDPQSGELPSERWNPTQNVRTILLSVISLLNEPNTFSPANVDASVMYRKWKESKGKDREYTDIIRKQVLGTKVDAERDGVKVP
Sequence | lacZ reporter activity
B1 (TRIM28 RING domain) | 0
B2 (TRIM74 RING domain) | 0
B3 (RNF10 RING domain) | 0
B4 (TRIM34 RING domain) | 0
B5 (RNF32 RING domain) | 0
B6 (MARCHF2 RING domain) | 0
B7 (TRIM32 RING domain) | 0
FLSKVEETFQCICCQELVFRPITTVCQHNVCKDCLDRSFRAQVFSCPACRYDLGRSYAMQ (UHRF1 RING domain (UniProt Q96T88)) | 0
B8 (RNF7 RING domain) | 0
B9 (TRIM47 RING domain) | 0
B10 (TRIM2 RING domain) | 0

Sample 2
Target: CCNA2, cyclin fold, Cln2 fusion (human)
Method: yeast growth competition, sequencing
Matrix: yeast
Notes: strong parent motif
Baseline: not given
Reading: higher = stronger binding
Starting sequence: SAMHD1 docking peptide (human); ASKSRVQLFKDDP; partner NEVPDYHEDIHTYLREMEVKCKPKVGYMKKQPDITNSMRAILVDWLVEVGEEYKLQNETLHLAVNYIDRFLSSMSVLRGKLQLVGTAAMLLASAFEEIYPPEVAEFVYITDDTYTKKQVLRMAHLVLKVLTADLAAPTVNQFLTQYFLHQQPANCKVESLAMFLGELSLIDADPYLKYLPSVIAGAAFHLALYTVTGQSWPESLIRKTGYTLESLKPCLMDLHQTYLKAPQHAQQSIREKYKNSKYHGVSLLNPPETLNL
Substitution | normalised enrichment score
ASKSRVQLFTDDP [K10T] | 1.91
ASKSRDQLFKDDP [V6D] | -0.167
ASKSRVQLRKDDP [F9R] | -0.077
AHKSRVQLFKDDP [S2H] | 3.39
ASGSRVQLFKDDP [K3G] | 1.41
ASKSRVQIFKDDP [L8I] | -0.0363
ASKSRVQLFVDDP [K10V] | 2.25
ASLSRVQLFKDDP [K3L] | 1.28
ASKSWVQLFKDDP [R5W] | 1.32
ASKSRVCLFKDDP [Q7C] | 3.39
ASPSRVQLFKDDP [K3P] | 0.642
ASKSLVQLFKDDP [R5L] | 2.49
ASKSPVQLFKDDP [R5P] | -0.787
ASKSRVQLFNDDP [K10N] | 1.77
ASKSRVQLFMDDP [K10M] | 2.2
ASKSRVQLEKDDP [F9E] | -0.554
ASKSRVQLHKDDP [F9H] | -0.131
ASKSRVQQFKDDP [L8Q] | -0.195
ASKSRVQLFKDFP [D12F] | 2.94
ASKSFVQLFKDDP [R5F] | 0.332
ASKSRVQLFHDDP [K10H] | 1.35
ASKSRVQLGKDDP [F9G] | -0.371
ASKSRVQSFKDDP [L8S] | -0.252
ASKSRVQLFSDDP [K10S] | 1.8
ASKSRVQLFKIDP [D11I] | 1.45

Sample 3
Target: Sal-like protein 4, full length isoform A (SALL4, Homo sapiens, UniProt Q9UJQ4, residues 1-1053)
Sequence of UniProt Q9UJQ4 (whole entry, looked up): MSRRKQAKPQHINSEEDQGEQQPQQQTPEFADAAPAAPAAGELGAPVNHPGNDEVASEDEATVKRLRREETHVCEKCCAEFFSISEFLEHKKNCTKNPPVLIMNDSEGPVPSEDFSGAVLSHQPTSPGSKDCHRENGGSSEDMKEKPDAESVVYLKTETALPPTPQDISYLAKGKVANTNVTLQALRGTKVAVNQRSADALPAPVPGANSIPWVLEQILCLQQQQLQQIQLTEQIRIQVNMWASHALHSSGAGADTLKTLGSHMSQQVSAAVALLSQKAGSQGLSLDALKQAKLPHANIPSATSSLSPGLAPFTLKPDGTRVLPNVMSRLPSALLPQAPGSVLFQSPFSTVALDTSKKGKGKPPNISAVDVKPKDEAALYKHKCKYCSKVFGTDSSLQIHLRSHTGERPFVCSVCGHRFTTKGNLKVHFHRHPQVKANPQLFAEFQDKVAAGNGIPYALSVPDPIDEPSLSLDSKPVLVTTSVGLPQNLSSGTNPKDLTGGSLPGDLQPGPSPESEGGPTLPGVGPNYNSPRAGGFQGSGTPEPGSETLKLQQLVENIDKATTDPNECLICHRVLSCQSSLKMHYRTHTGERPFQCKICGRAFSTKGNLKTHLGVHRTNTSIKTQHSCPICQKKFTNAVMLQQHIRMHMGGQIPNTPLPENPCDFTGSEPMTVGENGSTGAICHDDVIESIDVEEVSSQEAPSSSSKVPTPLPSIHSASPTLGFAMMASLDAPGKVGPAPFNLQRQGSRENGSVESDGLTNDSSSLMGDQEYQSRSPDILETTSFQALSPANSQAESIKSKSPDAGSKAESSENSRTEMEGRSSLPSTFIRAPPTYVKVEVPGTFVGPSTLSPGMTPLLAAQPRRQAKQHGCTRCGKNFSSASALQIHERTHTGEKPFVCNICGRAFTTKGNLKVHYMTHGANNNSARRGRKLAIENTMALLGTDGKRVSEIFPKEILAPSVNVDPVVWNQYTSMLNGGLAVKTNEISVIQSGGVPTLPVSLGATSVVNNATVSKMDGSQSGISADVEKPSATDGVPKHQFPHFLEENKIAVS
Method: universal PBM
Molecule type: double-stranded DNA, one strand shown
Matrix: in vitro
Concentration: 600 nM
Notes: 8-mer, flanks averaged, mean of replicates
Reading: higher = stronger binding
Strand | E-score
AAGCGACT | 0.0314
GGGCCCTA | -0.294
CACACACG | -0.239
AGGGTGAT | -0.0742
CGTTCTAA | 0.065
AACAAATA | 0.338
AATATCGG | 0.2
ATAAGAAT | 0.309
CTGAATAA | 0.208
ACGCCCGG | -0.31
AGGCATAA | 0.219
ATGACACA | 0.184
GAGCGAGA | -0.0425
GGCGGGAA | -0.104
AGATGCAA | 0.0907
CCAATCAC | 0.0238
ATCTGAAG | 0.0966

Sample 4
Target: RING finger protein unkempt homolog, zinc fingers 1-6, GST-SBP tag (UNK, Homo sapiens, UniProt Q9C0B0, residues 30-357)
Method: RNA Bind-n-Seq
Molecule type: RNA
Matrix: in vitro
Concentration: not given
Notes: RNA with constant flanks, human and mouse sites, ends assumed
Baseline: input RNA pool
Reading: higher = stronger binding
Constant ends, left off below: GGGAGUUCUACAGUCCGACGAUC … CAACAGAGGAUUGAGCAUCA
Target sequence (chain): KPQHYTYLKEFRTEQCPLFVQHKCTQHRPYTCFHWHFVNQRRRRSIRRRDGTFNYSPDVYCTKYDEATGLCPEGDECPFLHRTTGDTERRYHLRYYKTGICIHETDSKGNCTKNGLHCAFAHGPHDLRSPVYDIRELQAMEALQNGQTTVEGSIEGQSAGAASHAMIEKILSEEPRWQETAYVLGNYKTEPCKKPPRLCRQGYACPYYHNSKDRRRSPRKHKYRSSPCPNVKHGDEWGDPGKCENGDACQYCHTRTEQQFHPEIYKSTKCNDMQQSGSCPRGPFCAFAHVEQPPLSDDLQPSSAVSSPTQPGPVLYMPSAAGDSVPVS
Strand | bound/input enrichment [ratio]
CCACGGAUGUUCAAUAUCAUCUCAGAUUCUCCAUCUCCUAUUGCUGCAAGAACACUGAUAUUAGUGGCUAAAUCUGUGCAGAACUUAGCAAAUCUUGUGGAAUUUGGAGCUAAGGAGCCC | 0.187
AGCAAACUACUGAUUGAAUCUCUUGAAAAAUAUGUGGUAUUGUGUGAAUCUCCACAGGAUAAAAGAACACUUCUUGUGAAUUGUCAGAAUAAGAGUCUUUCACAGUCUUUUGAAAAUCUU | 0.0688
CCAGAAGGACAAGUUGUCUGUUUUGAUGCCAAGAUAAACUUUGAUGACAAUGCUGAGUUCCGACAAAAGGACAUAUUUGCUAUGGACGACAAAUCCGAGAAUGAGCCCAUUGAAAAUGAA | 0.203
UUGGACAGCGCCCCACAACAAAGAAUUAUCCUGCCCGAAAUGGUAGUCGUGCCAAGGCUGAGUAACCUUGUGUUAAAAGUAACCUGUGGCAGACUAGGUUUCCAGAAUUUCCUGGUUCUG | 0.115
UCCCCUUAUGACCAGGCAGCUUGGAUCUUAAAAGCAAGAGCGCUAACAGAAAUGGUAUACAUAGAUGAAAUUGAUGUAGAUCAGGAAGGAAUUGCAGAAAUGAUGCUGGAUGAAAAUGCU | 0.569
GGCGGCCUCACGGACGAGGCCGCCCUCAGUUGCUGCUCCGACGCGGACCCCAGUACCAAGGAUUUUCUAUUGCAGCAGACCAUGCUACGAGUGAAGGAUCCUAAGAAGUCACUGGAUUUU | 0.145
UCUACGUCUUCAUCUAUGCAGCCAGGCCCUGUGUCAAAUCAGUCACUUUUAUCAGAAUCUGUAGCACCUUCCCAAGUGGACAGUACAUCUGUGGACAAAGCAGUAUCUGAGACAGAAGAC | 0.372
CCCAUGCCUGGGGUAGCUGGCGGCAGCGGCCAGUCGAAAGUAAUGGCUAACUACAUGUACAAGGCCGGCCCCUCAGCCCAGGGUGGGCACCUAGAUGUCCUCAUGCAGCAAAAGCCUCAG | 0.0993

A few entries again (sample 3):
Strand | E-score
CTGAATAA | 0.208
CCAATCAC | 0.0238
ATAAGAAT | 0.309
ACGCCCGG | -0.31
AACAAATA | 0.338
AGATGCAA | 0.0907
CACACACG | -0.239
CGTTCTAA | 0.065
